Results of several laboratories.
Numbered parts are unrelated; each lists some results of a single study.

Sample 1
Target: RNA binding protein fox-1 homolog 2, RRM domain, GST-SBP tag (RBFOX2, Homo sapiens, UniProt O43251-10, residues 100-194)
Method: RNA Bind-n-Seq
Form: RNA
Sample: in vitro
Tested at: 365 nM
Setting: natural RNA segment, single round, ends assumed
Relative to: no-protein control
Reading: higher = stronger binding
Residues (chain): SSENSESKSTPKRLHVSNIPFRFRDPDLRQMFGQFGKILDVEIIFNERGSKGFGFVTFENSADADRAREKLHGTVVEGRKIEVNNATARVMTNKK
Under “RBNS enrichment (R)”, `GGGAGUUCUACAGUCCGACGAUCGACAACAGAUUGGAUCUGUAAUGUUGAUUAGUCUUUAGCCAUAACCACUACACUUUUAGAAAGACAGAAAAAUGUAAGAAUUUGUUUUUACCAUAAUGAGUCUUAAGUAGUGGAAUUCUCGGGUGCCAA` is recorded as 0.341.
`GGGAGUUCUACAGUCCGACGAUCAGAGAACUAUAUGAAUUCUAACAAGUCAUAGGUUAAUAUUUAAGACACUGAAAAAUCUAAGUGAUAUAAAUCAGAUUCUUCUCUCUCAAUUUUAUCCCUCACCUGUAGCAUGGAAUUCUCGGGUGCCAA` — result for “RBNS enrichment (R)”: 6.46.
For `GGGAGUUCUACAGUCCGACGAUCAAGCCUACGUAAGCAAACGACUACAGCUCCUUCCCCCCAGGACUUGCACUUGCACUAGAGCAGCCGGUGCCCAUGCAGAGUGAACGUGGCUGAAUUAACUUUUCCAACAAUGGAAUUCUCGGGUGCCAA`, “RBNS enrichment (R)” read 1.59.
Under “RBNS enrichment (R)”, `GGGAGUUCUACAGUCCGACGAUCAAUUAAGGGAGCUGAGCCAGUCAUGGUUGUGGCGUGUGAGUCAGGAGACCUAGGUUUCAGCCCCUCUCUACUGUCAGCGAGCUGUGCAACGUGGGCAAGUCAUUGUCCUCUGGAAUUCUCGGGUGCCAA` is recorded as 0.283.
`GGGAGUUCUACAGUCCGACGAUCGAAUUACAAACUUUAAACACUUUUUAAAUCUUCAAAAUAUUUAAAACAAAUUUAAAGGGCCUGUUAAUUCUUAUAUUUUUCUUUACUAAUCAUUUUGGAUUUUUUUCUUUUGGAAUUCUCGGGUGCCAA`: “RBNS enrichment (R)” 1.25.
`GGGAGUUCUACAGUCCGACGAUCUCCCAGCGCCUCAGGCCCCGCGUUUGUGUCUGGAGUCUCCCCCCGGGGAGAGGACACUGGCCCCUCGCACUCCAGAAAAGCCAUGCCAGCUGGGCUCGUUGACAAAGGGUUGGAAUUCUCGGGUGCCAA`: “RBNS enrichment (R)” 0.344.
`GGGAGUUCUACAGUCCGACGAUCUGGCUUGGACCUGAAAUCUGCCCCCAACAGUGUCCAAGUGCACAUGACUUUGAGCCAUCUCCAGAGAAGGAAGUGAAAAUUGUGGCUCCCCAGUCGAUUGGGACACAGUCUGGAAUUCUCGGGUGCCAA`: “RBNS enrichment (R)” 1.74.
For `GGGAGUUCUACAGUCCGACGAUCUUGGGUGUUAGCUUGAGAUGGUUAAAGGUGGUUUGGGGAGGGACUUCGUUGUAAUGGUUUUGCUGUAAAAAAUGUUUCCAACUCCGCUGAAAUGUUGCUGAAAAGCAUGGUGGAAUUCUCGGGUGCCAA`, “RBNS enrichment (R)” read 1.06.
For `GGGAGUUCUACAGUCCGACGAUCGGGUGGUCUCAGAAGGCACGAGGCUUCCUGCCUCUUCCCUCUUCCUCCUUGUAAGAGCUUCAACCCAAGUCCUCCAAUUCACAUUAAGGAAUCCAUACUAAAGGGGGACUUGGAAUUCUCGGGUGCCAA`, “RBNS enrichment (R)” read 0.279.

Sample 2
Target: Ras GTPase-activating protein-binding protein 1, full length (G3BP1, Homo sapiens, UniProt Q13283)
Sequence of UniProt Q13283 (whole entry, looked up): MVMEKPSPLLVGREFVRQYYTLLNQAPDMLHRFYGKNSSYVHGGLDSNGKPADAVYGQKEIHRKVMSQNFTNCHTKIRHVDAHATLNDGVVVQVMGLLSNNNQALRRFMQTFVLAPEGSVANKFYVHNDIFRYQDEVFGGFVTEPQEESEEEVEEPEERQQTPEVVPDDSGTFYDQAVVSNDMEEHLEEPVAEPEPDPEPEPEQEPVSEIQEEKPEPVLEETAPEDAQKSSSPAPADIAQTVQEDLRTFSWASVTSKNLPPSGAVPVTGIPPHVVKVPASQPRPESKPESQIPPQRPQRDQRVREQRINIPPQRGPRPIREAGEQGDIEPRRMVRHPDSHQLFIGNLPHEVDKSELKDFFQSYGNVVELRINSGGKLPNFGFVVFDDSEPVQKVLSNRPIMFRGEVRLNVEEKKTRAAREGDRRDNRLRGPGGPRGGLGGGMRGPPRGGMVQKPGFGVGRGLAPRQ
Method: RNA Bind-n-Seq
Form: RNA
Sample: in vitro
Tested at: 200 nM
Setting: whole 134-nt RNA, ends assumed
Together with: 150 mM KCl
Relative to: input library
Reading: higher = stronger binding
`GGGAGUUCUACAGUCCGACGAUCUCCUAGUAUUCUGGCCGUUCAGAGAUCUGCAAUCCUCAAGAAGCAGCAACAGCAGCAGCAGCAACAACAACAUCAAGCCUCAUCUAAUAGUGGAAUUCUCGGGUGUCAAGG` has a log2 enrichment of 0.26.
The log2 enrichment of `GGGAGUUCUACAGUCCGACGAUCCCAGAGCCAGAGAGCUUGGGCCCUGGGACGCCUGGGUUCCCCGAGCAGGAGGAAGACGAACUUCACCGCACCCUGGGCGUGGAGCGGUUUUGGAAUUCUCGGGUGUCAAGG` is reported as -0.55.
`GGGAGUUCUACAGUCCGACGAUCUCCUGUGCUACACAUCGUAUGUACCGAAUCGGUUUUUUGGGUUUUUUGGUUUUUUGGGGAAAGUAUUAUGUUACGCCGUUCGGAUCUGCAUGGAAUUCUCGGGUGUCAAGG` has a log2 enrichment of -0.888.
`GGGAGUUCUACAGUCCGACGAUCUAUUGGACACAGUGCCCCGCUGAACAGCAGCUGUUCCCAGCGCCAGAGGACCCCACAGCCACAGUAGGAGCUUUGCGACCCCUACGCAACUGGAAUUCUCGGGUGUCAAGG` has a log2 enrichment of -0.96.
`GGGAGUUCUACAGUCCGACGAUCCACAGACAACACGCACCCACACAGACACAGAGGGAAGGGGUUGGGAUGGGGACAGGGUGCACAGCAGGGCGGGGUACGACCCCAGCCCCUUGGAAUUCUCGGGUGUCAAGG` has a log2 enrichment of 1.84.
For `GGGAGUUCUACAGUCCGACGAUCUCCUGUGCUACACAUCGUAUGUACCGAAUCGGUUUUUGGGGUUUUUGGGGUUUUUGGGGAAAGUAUUAUGUUACGCCGUUCGGAUCUGCAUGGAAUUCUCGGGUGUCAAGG`, the log2 enrichment was -0.108.
For `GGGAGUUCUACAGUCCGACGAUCUGGGAGGUGGAUUUUGUUUGUUUUUUUAGCUCAUUUCCAGGGGUGGGAAUUUUUUUUUAAUAUGUGUCAUGAAUAAAGUUGUUUUUGAAAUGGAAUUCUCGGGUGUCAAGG`, the log2 enrichment was 0.263.
With `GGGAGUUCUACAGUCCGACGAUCGCAGGAAGUAAAAACAAAUGGAAAUGCUUCGGAUAGUGGCGGGGGUGGGGGUUGCUAAGGAAAGGGUGGGAUGGGAGUGGGUAAAGAGUUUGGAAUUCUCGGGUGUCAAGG` the log2 enrichment was 0.943.
For `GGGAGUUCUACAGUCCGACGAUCCCUGUGCUACACAUCGUAUGUACCGAAUCGGGUUUUUUUGGGAAAAAGGGUUUUUUUGGGAAAGUAUUAUGUUACGCCGUUCGGAUCUGCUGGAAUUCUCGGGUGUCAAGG`, the log2 enrichment was -0.992.
`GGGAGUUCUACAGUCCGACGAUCAGUCCUGUGCUACACAUCGUAUGUACCGAAUCGGGGAAAGGGGAGGGGAAAAAGGGGAAAGUAUUAUGUUACGCCGUUCGGAUCUGCACUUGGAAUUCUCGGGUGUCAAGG` gave a log2 enrichment of 0.316.

Sample 3
Target: PABPC1L2, full length, GST fusion (mouse, UniProt A0ABA7IW68)
Method: RNAcompete
Form: RNA
Sample: in vitro
Tested at: 20 nM
Setting: 7-mer, probes averaged, single round
Relative to: mean of 7-mers
Reading: higher = stronger binding
Construct (chain): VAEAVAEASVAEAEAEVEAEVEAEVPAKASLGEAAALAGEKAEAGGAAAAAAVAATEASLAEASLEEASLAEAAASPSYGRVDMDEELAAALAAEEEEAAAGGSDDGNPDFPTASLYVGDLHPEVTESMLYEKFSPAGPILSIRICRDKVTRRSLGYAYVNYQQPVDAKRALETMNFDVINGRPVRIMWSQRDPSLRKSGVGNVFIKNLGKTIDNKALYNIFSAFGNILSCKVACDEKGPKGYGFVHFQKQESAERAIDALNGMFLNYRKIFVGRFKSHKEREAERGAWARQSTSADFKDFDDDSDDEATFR
The 7-mer Z-score of `GAUCAGC` is reported as -0.229.
`GCCAGAG` has a 7-mer Z-score of 0.102.
`AACACCU` gave a 7-mer Z-score of 0.124.
For `CUCCGAG`, the 7-mer Z-score was -0.199.
`GUAUCCG` gave a 7-mer Z-score of -0.264.
The 7-mer Z-score of `ACUUCCG` is reported as -0.249.
With `CUUAACC` the 7-mer Z-score was -0.402.
With `GGGACCG` the 7-mer Z-score was 0.0189.
For `GGCCUGU`, the 7-mer Z-score was -0.146.
`UCUGCAU` has a 7-mer Z-score of -0.224.
`AACGAAG` has a 7-mer Z-score of 0.387.
The 7-mer Z-score of `CUGCACA` is reported as -0.121.
The 7-mer Z-score of `UAUAUCU` is reported as -0.151.
`AUAGGCA` has a 7-mer Z-score of 0.311.
With `UCUGCCU` the 7-mer Z-score was -0.32.
`UGCACGG` has a 7-mer Z-score of -0.0337.
With `UGAUGUC` the 7-mer Z-score was -0.264.
With `GGUAGCG` the 7-mer Z-score was 0.00436.
With `UGAGAGG` the 7-mer Z-score was 0.0424.
`UGGACUU` gave a 7-mer Z-score of -0.184.
`CUCGUAC` gave a 7-mer Z-score of -0.251.
The 7-mer Z-score of `UACGACC` is reported as -0.246.
With `AAGCACA` the 7-mer Z-score was 0.138.
`AUAGCCG` has a 7-mer Z-score of -0.175.
For `CUCAGUU`, the 7-mer Z-score was -0.398.

Sample 4
Target: Interferon regulatory factor 7, full length, phosphomimetic (IRF7, Homo sapiens, UniProt Q92985, residues 1-503, S101K/S471D/S472D/S475D/S476D/S477D/S483D/S484D/S487D)
Method: protein-binding microarray
Form: double-stranded DNA, one strand shown
Sample: in vitro
Tested at: 250 nM
Setting: 60-bp whole probe
Together with: salmon DNA 0.4 mg/ml
Relative to: random background probes
Reading: higher = stronger binding
Shared flanks, not repeated: GCCTAGCAC … GTCTTGATTCGCTTGACGCTGCTG
Residues (chain): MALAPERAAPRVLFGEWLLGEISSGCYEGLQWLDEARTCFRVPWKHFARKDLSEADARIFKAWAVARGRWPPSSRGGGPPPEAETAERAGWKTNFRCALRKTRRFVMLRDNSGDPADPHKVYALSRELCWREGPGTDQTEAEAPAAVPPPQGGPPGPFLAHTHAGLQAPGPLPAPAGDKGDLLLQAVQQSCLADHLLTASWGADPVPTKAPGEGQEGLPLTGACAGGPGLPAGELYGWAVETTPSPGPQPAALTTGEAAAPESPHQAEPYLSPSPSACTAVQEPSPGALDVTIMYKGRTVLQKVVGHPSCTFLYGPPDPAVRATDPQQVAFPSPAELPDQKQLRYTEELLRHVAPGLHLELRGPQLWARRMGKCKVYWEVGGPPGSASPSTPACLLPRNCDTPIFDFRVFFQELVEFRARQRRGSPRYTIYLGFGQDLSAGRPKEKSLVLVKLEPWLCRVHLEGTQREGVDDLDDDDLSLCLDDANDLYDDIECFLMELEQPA
`ATTTTTATCAAATGTGGGATTGTGCTA` has a log fluorescence of 0.415 z-score.
With `GTCGGTTTCGACTATCGGGACGTGCTA` the log fluorescence was 6.73 z-score.
The log fluorescence of `TTAGGTATCGACACTGGGTTCGTGCTA` is reported as -0.0232 z-score.
`TTTACTTTCTGAATGCCCTCGTGCTAG` has a log fluorescence of 1.46 z-score.
`TCATGTTTGGGTCTTGTACTGTGCTAG` has a log fluorescence of 0.318 z-score.
The log fluorescence of `TCAGGTCTCCTTATCCTTTAGTGCTAG` is reported as 0.421 z-score.
`CACGGTATCGGTCTCGGGACGTGCTAG` has a log fluorescence of 0.853 z-score.
With `AGCAAATTATATCTTATATCGTGCTAG` the log fluorescence was -0.275 z-score.
For `GACGGACTGGGACTCGGGACGTGCTAG`, the log fluorescence was 0.0456 z-score.
For `GACGATATGGGGTTTCGAGACGTGCTA`, the log fluorescence was 1.59 z-score.
`TGTGCCATATTTATCTGCAAGTGCTAG` has a log fluorescence of 0.439 z-score.
`GACGGTCTCGCACTGGGGACGTGCTAG` has a log fluorescence of -0.0267 z-score.
With `TCAGCTTCCATTTTCTGACTGTGCTAG` the log fluorescence was 0.775 z-score.
With `GACGGTTTCCTTTCCCTGACGTGCTAG` the log fluorescence was 4.77 z-score.
`GACGGATTCCTTATCCTGACGTGCTAG` has a log fluorescence of 0.577 z-score.
`CACTCTTGCTTTTTAGATCGGTGCTAG` has a log fluorescence of 0.593 z-score.
`TTCCCTCCCTAATTCTGATTGTGCTAG` has a log fluorescence of 1.18 z-score.
With `TTAGATATCAGACTGGTTTAGTGCTAG` the log fluorescence was 0.374 z-score.
`GACGGTTTCGGTATCGGGACGTGCTAG` has a log fluorescence of 10.5 z-score.
`TGTCTTCCCCATCTTGTTCCGTGCTAG` has a log fluorescence of 2.28 z-score.
`GACGAACTGAGACGGGAGACGTGCTAG` has a log fluorescence of -0.386 z-score.
With `TCAAGTTTTGAGCTCTGACTGTGCTAG` the log fluorescence was -0.153 z-score.
`GACGGTTTTGGACTGGGGACGTGCTAG` gave a log fluorescence of 0.429 z-score.
For `GACTATATCAGTTTCGAGACGTGCTAG`, the log fluorescence was 4.14 z-score.
For `GACGGTCCCGGTCTCGGGACGTGCTAG`, the log fluorescence was 0.354 z-score.

Some of these lines once more (sample 3):
`AUAGGCA` has a 7-mer Z-score of 0.311.
The 7-mer Z-score of `CUGCACA` is reported as -0.121.
`GCCAGAG` has a 7-mer Z-score of 0.102.
`AUAGCCG` has a 7-mer Z-score of -0.175.
For `CUCCGAG`, the 7-mer Z-score was -0.199.
The 7-mer Z-score of `UAUAUCU` is reported as -0.151.
`UGCACGG` has a 7-mer Z-score of -0.0337.
With `CUUAACC` the 7-mer Z-score was -0.402.
The 7-mer Z-score of `ACUUCCG` is reported as -0.249.
With `AAGCACA` the 7-mer Z-score was 0.138.
